Measured values gathered from unrelated publications.
Each numbered part is a random draw from the data of one study; scales do not carry over between parts.

Series 1
Target: Fragile X messenger ribonucleoprotein 1, C-terminal low-complexity region (Fmr1, Mus musculus, UniProt P35922)
Method: RNA Bind-n-Seq
Molecule type: RNA
Medium: in vitro
Tested at: 200 nM
Notes: whole 134-nt RNA, ends assumed
Added: 150 mM KCl
Relative to: input library
Reading: higher = stronger binding
Quantity: log2 enrichment
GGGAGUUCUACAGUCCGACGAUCUGGCCCUGGUGGCAUGCGGGGAGGAAGAGGUGGCCUCAUGGAUAGUGGUGGUCCCGGUGGAAUGUUCAGAGGUGGCCGUGGUGGAGACAGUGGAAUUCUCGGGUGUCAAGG: 0.0985
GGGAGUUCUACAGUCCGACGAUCUCCUGUGCUACACAUCGUAUGUACCGAAUCGGGGUUUGGGGUUUGGGGUUUUUUUGGGGAAAGUAUUAUGUUACGCCGUUCGGAUCUGCAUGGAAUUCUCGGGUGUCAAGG: 0.969
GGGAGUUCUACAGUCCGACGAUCUCAAGUCCUGUGCUACACAUCGUAUGUACCGAAUCGGAAAGGGAAAGGGAAAGGAAAGUAUUAUGUUACGCCGUUCGGAUCUGCACUUCCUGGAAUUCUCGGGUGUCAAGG: -0.357
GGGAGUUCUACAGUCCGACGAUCAAGUCCUGUGCUACACAUCGUAUGUACCGAAUCGGUUUUUGGUUUUUGGGUUUUUGGAAAGUAUUAUGUUACGCCGUUCGGAUCUGCACUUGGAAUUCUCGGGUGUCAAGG: -0.808
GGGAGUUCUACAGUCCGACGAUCCUCAAGUCCUGUGCUACACAUCGUAUGUACCGAAUCGGGCGGGGCGGGGCGGGGAAAGUAUUAUGUUACGCCGUUCGGAUCUGCACUUCCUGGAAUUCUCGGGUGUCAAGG: 1.29
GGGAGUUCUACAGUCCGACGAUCCCUGUGCUACACAUCGUAUGUACCGAAUCGGGGUUUUUUUGGGUUUUUUUGGUUUUUUUGGAAAGUAUUAUGUUACGCCGUUCGGAUCUGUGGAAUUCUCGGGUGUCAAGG: -0.583
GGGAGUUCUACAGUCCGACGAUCCACAGACAACACGCACCCACACUGACACAGAGGGAAGGGGUUGGGAUGGGGACAGGGUGCACAGCAGGGCGGGGUAGGACCCCAGCCCCUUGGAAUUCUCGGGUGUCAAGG: 1.38
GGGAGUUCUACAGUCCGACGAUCCCUGUGCUACACAUCGUAUGUACCGAAUCAAAUUUUUUUAAAUUUUUUUAAACCCCCAAAAAAGUAUUAUGUUACGCCGUUCGGAUCUGCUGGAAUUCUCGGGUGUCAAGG: 0.11
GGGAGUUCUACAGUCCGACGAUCCAAGUCCUGUGCUACACAUCGUAUGUACCGAAUCGGGCCCCGGGCCCCGGCCCCGGAAAGUAUUAUGUUACGCCGUUCGGAUCUGCACUUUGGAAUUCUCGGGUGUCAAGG: -0.507

Series 2
Target: Centromere-binding protein 1, full length, N-terminal tag (CBF1, Saccharomyces cerevisiae, UniProt P17106, residues 1-351)
Sequence of UniProt P17106 (whole entry, looked up): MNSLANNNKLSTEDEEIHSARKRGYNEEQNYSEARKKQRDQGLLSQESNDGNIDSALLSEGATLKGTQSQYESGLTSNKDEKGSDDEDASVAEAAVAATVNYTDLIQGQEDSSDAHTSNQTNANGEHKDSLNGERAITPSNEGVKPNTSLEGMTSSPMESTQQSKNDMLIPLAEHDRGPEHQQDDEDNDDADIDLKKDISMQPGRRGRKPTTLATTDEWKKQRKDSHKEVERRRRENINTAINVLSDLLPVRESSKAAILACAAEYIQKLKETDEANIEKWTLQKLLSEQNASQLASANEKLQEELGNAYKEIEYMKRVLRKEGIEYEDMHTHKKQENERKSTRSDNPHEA
Method: protein-binding microarray
Molecule type: double-stranded DNA, one strand shown
Medium: in vitro
Tested at: 0.8 µM
Notes: whole 60-bp probe, no competitor
Reading: higher = stronger binding
Quantity: fluorescence intensity
CTACTGTACATACTACACGTTATAGCGTTAACATTCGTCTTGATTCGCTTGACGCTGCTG: 579 a.u.
CTAAATCATATTTCGCACGTTACCCGACTGCTTTTCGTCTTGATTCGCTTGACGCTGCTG: 702 a.u.
CTACTCTTAGTTTTTCATGTGGTAAAGGCAATGTTCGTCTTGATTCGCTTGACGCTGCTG: 624 a.u.
GAAGGACGAGAAAACCGTGTGACACCGTCCGCTTAGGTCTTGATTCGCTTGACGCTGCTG: 568 a.u.
CTACAATATACGAGCCACGTTTTTGGCGTCGCATTCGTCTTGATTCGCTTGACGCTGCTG: 610 a.u.
CTAATGTGTGATGGACATCAGCATTCAATGTATTTCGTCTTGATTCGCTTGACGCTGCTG: 517 a.u.
CTATATAAGAATCACCACGTTTCAGGTCTCCAATTCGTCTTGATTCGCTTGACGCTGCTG: 564 a.u.
GAAGAAGAAAGAGGTACCATGTGATTCGAGATTTAGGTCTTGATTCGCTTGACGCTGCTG: 2230 a.u.
CTATAGTAAAGGAGAGACGTGACAGTTGGATGTTTCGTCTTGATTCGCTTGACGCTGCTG: 593 a.u.
CTACAAAAGCTACGTCACCTCACCAATAATCCGTTCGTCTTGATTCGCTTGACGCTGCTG: 547 a.u.
GAAATATCACAACGTCACGTTGAATAAGGCCATTAGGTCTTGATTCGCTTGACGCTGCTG: 1190 a.u.
GAACACAATTCGGATCATCAGGTTCATGATGATTAGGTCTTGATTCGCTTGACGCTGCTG: 558 a.u.
CTATCTGTAAGCCCCTTCGTGATATTTCAAGGTTTCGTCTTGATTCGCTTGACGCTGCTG: 551 a.u.
CTATAATACCGCGGGCACATGAGATGTTAACAATTCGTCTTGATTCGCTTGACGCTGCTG: 607 a.u.
CTAAGGGATTAGAATCACGTAAGACTCTTGATCTTCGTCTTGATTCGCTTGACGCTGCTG: 510 a.u.
CCTAACTACTATACTGGTGAAATATAGCTTCGTACAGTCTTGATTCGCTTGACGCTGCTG: 538 a.u.
CTATGGAAACCTTATCATATGAGGTTTGCAAATTTCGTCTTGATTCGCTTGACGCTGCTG: 500 a.u.
CTACTTATCGTTCATCACATGTTATTTTTTTCATTCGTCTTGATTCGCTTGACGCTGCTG: 2290 a.u.
TGTACGAAGCTATGCCACGGGGCTATAGTAGTTAGGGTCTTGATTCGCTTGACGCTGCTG: 591 a.u.

Series 3
Target: RNA binding protein fox-1 homolog 2, RRM domain, GST-SBP tag (RBFOX2, Homo sapiens, UniProt O43251-10, residues 100-194)
Method: RNA Bind-n-Seq
Molecule type: RNA
Medium: in vitro
Tested at: 365 nM
Notes: natural RNA segment, single round, ends assumed
Relative to: no-protein control
Reading: higher = stronger binding
Quantity: RBNS enrichment (R)
Residues (chain): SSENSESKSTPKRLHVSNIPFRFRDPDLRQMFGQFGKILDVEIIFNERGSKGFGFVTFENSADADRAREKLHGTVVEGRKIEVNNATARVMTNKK
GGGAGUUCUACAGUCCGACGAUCCUAGCCAUACCUUUCUUAUGCAAGCCAUUGAGUUAUCAGGACUGUGAAUUAACACUGUAUGAAUAAAUUUCUGUACACCUUAUUGUUUGGCCAGAAGGCCACCAAGUGUAUGGAAUUCUCGGGUGCCAA: 0.761
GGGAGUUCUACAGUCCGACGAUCAAAGCCUUUUUAAAAUGUUUUUUUUUCACUUUAAAAUAGGGUAUUCAAAGUGGAGUAACGUGUAUUUUGAAAUGAUUUUGUGUUCUAUAUAGAAUGUCCCAGUUAAGAUUUGGAAUUCUCGGGUGCCAA: 0.689
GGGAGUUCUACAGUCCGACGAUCGUUCCCCACCCCUCACAGACUGCCUGAGCUCUUCUGUAAGCUGGGGUAGGGUGAUGGCAGUGCUCCGGGAACUGGGCCUGCAGCCUUCCUCUUCUGGGACUGCUGUGAGGUGGAAUUCUCGGGUGCCAA: 0.236
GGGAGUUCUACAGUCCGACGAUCUCUGAGUGUGAGGGGUUUCAUUUCUAUGGCUAAUCCCCAAAGCUGUAACACAUAGGGCAGGUACCUACUGAGGCACCCAGGCUUCUAAAAACUGUUCUCAGGACCUUGGGUGGAAUUCUCGGGUGCCAA: 0.282
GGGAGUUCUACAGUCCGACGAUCUUCCAUGUGUUUUGCUUUUAUCCACUGGCAUUUUUAGCUCCUUGAAGACAUAUCAUGUGUGAGAUAACUUCCUUCACAUCUCCCAUGGUCCCUAGCAAAAUGCUAGGCCUUGGAAUUCUCGGGUGCCAA: 0.857
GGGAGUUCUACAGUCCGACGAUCCUGCGCUUGAAGAUGUAUGAGUUUGCAGGGCGGCUGGUGGGCAAGUGUUUGUAUGAAUCCUCUCUAGGGGGAGCCUACAAGCAGUUGGUCCGUGCCCGGUUCACUCGGUCUGGAAUUCUCGGGUGCCAA: 0.508
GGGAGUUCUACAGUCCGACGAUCUUAAAAAUAAGACGUCCUUCAAAAUGUCUUUUAGUAUCAAUUAAGUUUGUGCAUGAUUGUUUUUAUAUUUCUCAUCAACUACACAACUUUUCCAAGUUAUAAAGUCUACUUGGAAUUCUCGGGUGCCAA: 0.617
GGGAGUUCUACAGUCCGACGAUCGCCACAAAAUAAAACACACACUGAUCAAAGCCGGCUAUACUGGCAUUGCAUAUCUUUGCUAUUCAACAAUGGUGUCCUUCACCACAGUUUCUAAUCUAGAGCACGGAGAAUGGAAUUCUCGGGUGCCAA: 0.396

Series 4
Target: RING finger protein unkempt homolog, zinc fingers 1-6, GST-SBP tag (UNK, Homo sapiens, UniProt Q9C0B0, residues 30-357)
Method: RNA Bind-n-Seq
Molecule type: RNA
Medium: in vitro
Tested at: not given
Notes: RNA with constant flanks, human and mouse sites, ends assumed
Relative to: input RNA pool
Reading: higher = stronger binding
Quantity: bound/input enrichment
Construct (chain): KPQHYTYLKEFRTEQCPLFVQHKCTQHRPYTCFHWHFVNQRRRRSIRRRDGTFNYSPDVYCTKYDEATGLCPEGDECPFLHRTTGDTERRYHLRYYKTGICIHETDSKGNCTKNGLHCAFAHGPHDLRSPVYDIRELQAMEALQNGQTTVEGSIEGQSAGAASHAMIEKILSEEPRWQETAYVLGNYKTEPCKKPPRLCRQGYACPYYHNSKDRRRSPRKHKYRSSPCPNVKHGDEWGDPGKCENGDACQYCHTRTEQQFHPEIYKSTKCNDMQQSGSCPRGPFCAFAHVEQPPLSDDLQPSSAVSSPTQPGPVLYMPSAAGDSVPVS
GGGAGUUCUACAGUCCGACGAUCGGAAGAGUUGGGCUGUGGAAGGACAUCUUCACCGUCUCCAUGAACGAGAAGUUUGAUCUAGUGUACAAACAGAAGAUGGGGAAGUGUGACCUCACGUUUGACUUUUAUCUAUAAUACCAGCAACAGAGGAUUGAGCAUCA: 0.202 ratio
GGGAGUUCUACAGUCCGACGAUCUCCAGAAUACACCAAAAAAAUAGAAAACCUAUGUGCUAUGGGCUUUGAUAGGAAUGCAGUAAUAGUGGCCUUGUCUUCAAAAUCAUGGGAUGUAGAGACUGCAACAGAAUUGCUUCUGAGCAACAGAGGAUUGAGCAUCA: 0.931 ratio
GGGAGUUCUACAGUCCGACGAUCCUGAAAGAGAAGAGAUCCCUUAGGCAAAGACUGUUGAAACCCAUGUGCCAGGAAAACUUACCUAUUGAAGCUGUUUAUCACAGAUAUAUGGUACAUUUGCUGGAGUUGGCUGUGACUUUCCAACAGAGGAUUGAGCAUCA: 0.185 ratio
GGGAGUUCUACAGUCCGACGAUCCCGGUGGUGAAGACUGAGUUCCAGUUGCUCUACGUGUACCAUCUUGUGGGGCCAUUUCUACAGAGGUUCCAACAGGAGAGAACCCGGUGCAUGAUUGAGAUUGGCGUGGCAUUUUAUGACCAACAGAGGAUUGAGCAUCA: 0.122 ratio
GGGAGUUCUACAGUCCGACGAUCCAUCGAAUUGGAAGAACUGCUCGCAGUACCAAAACAGGCACAGCAUACACUUUCUUUACACCUAAUAACAUAAAGCAAGUGAGCGACCUUAUCUCUGUGCUUCGUGAAGCUAAUCAAGCACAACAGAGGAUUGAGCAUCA: 0.0837 ratio
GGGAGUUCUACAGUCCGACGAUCUGGGUGUCGCUGGUGAGUAAGAACUAUGAGAUUGAGCGGACGAUUGUCCAGCUGGAGAACGAGAUCUAUCAGAUCAAGCAGCAGCACGGGGAGGCCAACAAGGAAAACAUCCGCCAAGACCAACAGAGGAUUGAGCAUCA: 0.22 ratio
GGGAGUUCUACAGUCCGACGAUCGCCAGCAGCACUCGGAACAGAUGUAUAGUGAUCUGAUUAAAAAGAUAACUAAUCACUUAGAGAGAGUCUCAAAGGAGCUGCAGGCCAGCCCUCCAGAUCUCUAUAUUGAAAGAUUUAAUACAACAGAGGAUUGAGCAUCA: 0.682 ratio
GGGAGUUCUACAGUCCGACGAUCUCUCCUAGUAGUGAUCUCACACUUUCAAGUGUUCUCUGGGAUAGAGAGAGAUCAAGCUUUUAUAGCCUGACGAGUUCAAACAUCAGUAAAUGGGAAUUAGAUGAUUCUUCAGAAAAGCAUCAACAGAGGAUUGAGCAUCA: 1.06 ratio

A few entries again (series 1):
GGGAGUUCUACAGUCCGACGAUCUCCUGUGCUACACAUCGUAUGUACCGAAUCGGGGUUUGGGGUUUGGGGUUUUUUUGGGGAAAGUAUUAUGUUACGCCGUUCGGAUCUGCAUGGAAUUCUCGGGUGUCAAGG: 0.969
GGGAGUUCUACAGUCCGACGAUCUCAAGUCCUGUGCUACACAUCGUAUGUACCGAAUCGGAAAGGGAAAGGGAAAGGAAAGUAUUAUGUUACGCCGUUCGGAUCUGCACUUCCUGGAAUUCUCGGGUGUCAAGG: -0.357
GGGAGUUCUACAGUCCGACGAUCAAGUCCUGUGCUACACAUCGUAUGUACCGAAUCGGUUUUUGGUUUUUGGGUUUUUGGAAAGUAUUAUGUUACGCCGUUCGGAUCUGCACUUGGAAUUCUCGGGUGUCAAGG: -0.808
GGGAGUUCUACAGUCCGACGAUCCUCAAGUCCUGUGCUACACAUCGUAUGUACCGAAUCGGGCGGGGCGGGGCGGGGAAAGUAUUAUGUUACGCCGUUCGGAUCUGCACUUCCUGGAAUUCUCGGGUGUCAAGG: 1.29
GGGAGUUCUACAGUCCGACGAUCCCUGUGCUACACAUCGUAUGUACCGAAUCGGGGUUUUUUUGGGUUUUUUUGGUUUUUUUGGAAAGUAUUAUGUUACGCCGUUCGGAUCUGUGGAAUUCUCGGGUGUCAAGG: -0.583
